Measurements of several laboratories.
A part holds a random share of what one study measured.

Study 1 — method: protein binding microarray; molecule type: double-stranded DNA, one strand shown; sample: in vitro; tested at: not given; relative to: not given; direction: higher = stronger binding; quantity: E-score
Target: Histone acetyltransferase KAT6A, both winged helices, GST fusion (KAT6A, Homo sapiens, UniProt Q92794, residues 1-181)
Setting: 8-mer, flanks averaged, mean of 2 arrays, mostly near background
Target sequence (chain): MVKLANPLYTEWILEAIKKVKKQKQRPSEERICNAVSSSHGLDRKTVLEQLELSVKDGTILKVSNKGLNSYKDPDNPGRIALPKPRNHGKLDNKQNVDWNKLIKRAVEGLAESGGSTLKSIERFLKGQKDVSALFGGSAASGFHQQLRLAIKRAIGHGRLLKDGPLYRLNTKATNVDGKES
CAATGAGC: -0.00758
ACTGGAGA: -0.0765
GGTGGTAC: -0.11
AAAACCAG: -0.0941
GAGTCAGC: -0.00664
AATAATGG: -0.0387
ATCTCAGA: -0.12
AAGAGATA: -0.163
ACCGTGGG: 0.0272
CGAACGAG: 0.0288
CAGAGCGC: 0.277

Study 2 — method: protein-binding microarray; molecule type: double-stranded DNA, one strand shown; sample: in vitro; tested at: 250 nM; setting: 60-bp whole probe; with: salmon DNA 0.4 mg/ml; relative to: random background probes; direction: higher = stronger binding; quantity: log fluorescence; constant ends, left off below: GCCTAGCAC … GTCTTGATTCGCTTGACGCTGCTG
Target: Interferon regulatory factor 5, full length, phosphomimetic (IRF5, Homo sapiens, UniProt Q13568-2, residues 1-514, K96S/S451D/S453D/S456D/S462D)
CTCTGCTTGCGTCTGGGTGTGTGCTAG: -0.446 z-score
GACGGTTCCGATTTCGGGACGTGCTAG: 1.47 z-score
TTAGGTTTCGGGACTAGGTTAGTGCTA: 6.27 z-score
GACGGTATCGGAATGGGGACGTGCTAG: 1.8 z-score
TCATGTATGGATGTGTTACTGTGCTAG: 0.14 z-score
TTAGAACTGAGACTGGACTAGTGCTAG: -0.373 z-score
AATTTGAGAACGGAAACCAAGTGCTAG: 0.5 z-score

Study 3 — method: RNA Bind-n-Seq; molecule type: RNA; sample: in vitro; tested at: 365 nM; relative to: no-protein control; direction: higher = stronger binding; quantity: RBNS enrichment (R)
Target: RNA binding protein fox-1 homolog 2, RRM domain, GST-SBP tag (RBFOX2, Homo sapiens, UniProt O43251-10, residues 100-194)
Setting: natural RNA segment, single round, ends assumed
Constant ends, left off below: GGGAGUUCUACAGUCCGACGAUC … UGGAAUUCUCGGGUGCCAA
Construct (chain): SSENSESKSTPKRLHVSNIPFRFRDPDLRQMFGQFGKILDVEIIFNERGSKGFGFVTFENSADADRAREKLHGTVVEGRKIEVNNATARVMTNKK
CCUAUCCCACACUGGCCCCACACCGGUGGUCUCCCUGCCUCAGCCAGGCUACUGCUGGGACACGCACAGGAAGGAGCAUGAGGGGGGGUUGGGAAGCAGUCGCCUGCCUG: 0.469
UUAAGACACAAUAUUGUAAUCCCUACUCUAGGCACUUGCCUUUAAACUAUGUUUUUCAGCCCUUCAGAAGGGUUCUACUACUGUCCUAUACAAUCAAGUAACUGAAAUUC: 0.273
UAGAGAGCUGUUAUUUCUAAAGGGGAAACCAGCUUUCUGUUCCAAAUGGAAGUUAGGUGAGGAGUUGAAGGUUGGUUUCUUGCGCUGUGCUUCCUUGGCUUGGGGGAGGG: 2.64
GUUUGGUAUUACUUUGACUAUGUCCACAAUAGCAGCAAUCUUGGCUUUUUGUUAGCCAAAGUGUUCUGUUUAUUUGGCUUGUCAUUUUCCGUGUGCUUUAAAAAGGUGUU: 0.357
UCAAGAAUAUUUGAUUUCCUAUUGUGUGCAUGGGAGGUUUACAAAAGACAGACUGUCCCUAUGCUUGUGCAGCUUACAAUCUAUUUAACUAUUAGAGGCCCUGUGAGAUG: 1.79
AGGUCUAGUGUGUAUGGAUCUGGGAUCUCCGCCCUUGAGGCAGAGACGGGAAGAUCAGGAGUUCAAGGUCUUAGCUACAUAGUAAGUUUGAAGCCAGCCUGGCUACUUGA: 0.754
UUAUAUUUUCAAACAUGGCAAGUUAAAAUAUAAAUUCAUUUAAAUAUAUAGUUUUGUACUUUUCUACCAUGUAAAUGUGCAAUGUAUAUAAAAGUUAUAAUGUGUAUUUG: 0.701
GAGAAGAGCUUGCACAGCCAACGAGACACAUUGCCUUCUGGAGCUGGGAGACAAAGGAGGAAUUUACUUUCUUCACCAAGUGCAAUAGAUUACUGAUGUGAUAUUCUGUU: 0.317
GCUGUUUUUGAACACGGGGUCAUUCUGCAGUCAGGACGAACCGGUCCCCGUCGCAGACGGAGUGCACGUGCCCUGCGCCACAUCCUCACGCUCGGUGGAGGGACGCGUGC: 0.279
UGUAUGUUGUGUAAAACAAAAAGCAUUGAUGAAAAAGCAAAAGGUGAUGUAUGUAUAUGAGAAAAUUAAUUGUACGAUAUCAUUCCAGUACGUUUUGUUGUACAUUUUAG: 0.913

Other studies, line by line
PhoQ, residues 284 288 289 292 302 303 AEGLLW — fold induction (PhoP, residues 12 14 15 18 19 NYFTV (Escherichia coli, UniProt P23836); Sort-seq, item: YFP reporter; E. coli; PhoQ-PhoP variant library, with: 10 µM Mg2+; relative to: high Mg2+ state, higher = stronger signaling): 1.6

Repeated from above (study 1):
ACTGGAGA: -0.0765
GGTGGTAC: -0.11
AAAACCAG: -0.0941
GAGTCAGC: -0.00664
